Measurements pooled from the literature.
Protocols differ between the studies behind these lines. “And” joins repeats or separate records; there may be more than shown. ± marks the error that the study gave.

SMILES	cell line	assay	conditions	scale	measurement	result
CC1(C)C[C@@H](Nc2cccc(-c3sc(C(=O)O)c(OCC(=O)O)c3Cl)c2)CCN1S(=O)(=O)Cc1cccc(NC(=O)CN2CCC(c3ccc4c(c3)oc(=O)n4C3CCC(=O)NC3=O)CC2)c1 (stereo partly drawn)	B16-F10	HTRF, item: phospho-STAT1 Tyr701	1.1 µM, added: IFN-γ	reference: DMSO	fold change	5.08 and 5.21 and 5.06 and 5.18 and 5.25
Cc1cccc(-c2cccc(C)n2)n1.Cc1cccc(-c2cccc(C)n2)n1.F[P-](F)(F)(F)(F)F.F[P-](F)(F)(F)(F)F.[Ru+2].c1ccc(-c2nc3c4cccnc4c4ncccc4c3[nH]2)cc1	SK-MEL-28	–	normoxia, added: blue light 453 nm, 100 J/cm2	reference: dark over light EC50	phototoxicity index	7
Cc1cc(NC2CCN(C)CC2)ccc1-c1cc2c(N3CCC[C@H](C(=O)N[C@H](C)c4ccccc4)C3)ncnc2[nH]1	NCI-H3122	cell growth or viability, MTT	0.008 µg/mL, 72 h	–	inhibition	4.92%
CSCC[C@H](NC(=O)[C@H](CCC(N)=O)NC(=O)[C@H](CCCCN)NC(=O)[C@H](CCCNC(=N)N)NC(=O)[C@H](Cc1ccc(O)cc1)NC(=O)[C@H](CCCNC(=N)N)NC(=O)[C@H](CO)NC(=O)[C@H](Cc1ccc(O)cc1)NC(=O)[C@H](CO)NC(=O)[C@H](CC(=O)O)NC(=O)[C@@H](NC(=O)[C@@H](N)Cc1ccccc1)[C@@H](C)O)C(=O)N[C@@H](C)C(=O)N[C@H](C(=O)N[C@@H](CCCCN)C(=O)N[C@@H](CCCCN)C(=O)N[C@@H](Cc1ccc(O)cc1)C(=O)N[C@@H](CC(C)C)C(=O)N[C@@H](C)C(=O)N[C@@H](C)C(=O)N[C@H](C(=O)N[C@@H](CC(C)C)C(=O)NCC(=O)N[C@@H](CCCCN)C(=O)N[C@@H](CCCNC(=N)N)C(=O)N[C@@H](Cc1ccc(O)cc1)C(=O)N[C@@H](CCCCN)C(=O)N[C@@H](CCC(N)=O)C(=O)N[C@@H](CCCCn1cc(C[C@H](NC(=O)CNC(=O)[C@H](CO)NC(=O)[C@H](CCCNC(=N)N)NC(=O)[C@H](CO)NC(=O)[C@H](CC(C)C)NC(=O)[C@H](CC(C)C)NC(=O)CNC(=O)[C@H](C)NC(=O)[C@H](CC(C)C)NC(=O)[C@H](CCCNC(=N)N)NC(=O)[C@H](Cc2c[nH]cn2)NC(=O)[C@@H](NC(=O)[C@@H](N)C(C)C)[C@@H](C)O)C(=O)N[C@H](C(=O)N[C@H](C(=O)N[C@@H](CCCCN)C(=O)N[C@@H](CC(N)=O)C(=O)N[C@@H](CC(N)=O)C(=O)N[C@@H](Cc2ccccc2)C(=O)N[C@H](C(=O)N2CCC[C@H]2C(=O)N[C@H](C(=O)N[C@@H](CC(N)=O)C(=O)N[C@H](C(=O)NCC(=O)N[C@@H](CO)C(=O)N[C@@H](CCCCN)C(=O)N[C@@H](C)C(=O)N[C@@H](Cc2ccccc2)C(N)=O)C(C)C)[C@@H](C)O)C(C)C)C(C)C)C(C)C)nn1)C(=O)N[C@H](C(=O)N[C@@H](CCCCN)C(=O)N[C@@H](CC(N)=O)C(=O)N[C@@H](CCCCN)C(N)=O)C(C)C)C(C)C)C(C)C	transfected COS-7 cells	cAMP accumulation, antagonist	added: PACAP-38	–	A2	> 10 µM
CCN(CC)CC(=O)Nc1cccc(-n2cc(-c3ccc4ccc(-c5cn(-c6cccc(NC(=O)CN(CC)CC)c6)nn5)cc4c3)nn2)c1	RCC4	PCR angiogenesis array, item: PTGS1	5 x IC50, 6 h, normoxia	reference: untreated	fold regulation	-1.91
CSC(=S)N/N=C(\C)c1ccc(Nc2nnc(-c3ccc(Cl)cc3)c3ccccc23)cc1	HepG2	cell growth or viability, MTT	78 nM, 24 h	–	viability	99.1%
N#C[C@@H]1CC(F)(F)CN1C(=O)CNC(=O)c1ccnc2c(NC(=O)CCOCCOCCOCCOCCOCCOCCNC(=O)[C@H](CCCCNC(=O)CN3CCN(CC(=O)[O-])CCN(CC(=O)[O-])CCN(CC(=O)[O-])CC3)NC(=O)CCCc3ccc(I)cc3)cccc12.[177Lu+3]	U-87 MG	–	4 h	reference: added dose	cell uptake	12.2 ± 0.82%
Cn1ncc(-c2ccc3c(=O)[nH]nc(CN)c3c2)c1-c1c(F)c(Cl)cc(OC2CC2)c1C#N	NCI-H2126	cell viability, inhibitor, CellTiter-Glo	120 h, baseline-subtracted	–	IC50	0.11 µM
CCN(C(=O)c1cc(F)ccc1Oc1nncnc1N1CCC2(C1)CN([C@H](CCCN(C)CCOC)C(C)C)C2)C(C)C	Hs 729	cell growth	168 h	–	GI50	> 10 µM
O=C(C[Se]C(=O)c1ccc2ccccc2n1)Nc1cccc(C(F)(F)F)c1	NCI60 prostate subpanel (PC-3, DU-145)	cell growth	10 µM, 48 h, one-dose	–	mean growth percent	-88.9%
CCCCCCCCCCCCCCCC(=O)OCC(CSC[C@H](N)C(=O)N[C@@H](CO)C(=O)N[C@@H](CCCCN)C(=O)N[C@@H](CCCCN)C(=O)N[C@@H](CCCCN)C(=O)N[C@@H](CCCCN)C(=O)NCCCCCC(=O)N[C@@H](CCCCN)C(=O)N[C@@H](CC(C)C)C(=O)N[C@H](C(=O)N[C@@H](Cc1ccccc1)C(=O)N[C@@H](Cc1ccccc1)C(=O)N[C@@H](Cc1ccc2ccccc2c1)C(=O)O)C(C)C)OC(=O)CCCCCCCCCCCCCCC (stereo partly drawn)	BV-2	RNA-seq, item: Il4ra	–	–	gene expression	12.7 FPKM and 12.5 FPKM and 14.2 FPKM
Cn1ncc2cc(-c3cncc(Cl)c3N3CCC4(CCNC4=O)CC3)ccc21	LS174T	gene expression, microarray, item: SLC6A4 mRNA	concentration not given, 24 h	reference: untreated cells	log2 fold change	2.15
Cc1cc(NC2CCN(C)CC2)ccc1-c1cc2c(N3CCC[C@H](C(=O)NCc4ccc(OC(F)(F)F)cc4)C3)ncnc2[nH]1	NCI-H3122	cell growth or viability, MTT	0.00032 µg/mL, 72 h	–	inhibition	14.1%
CCNc1cc2c(cc1C)C1(c3cc(C)c(NCC)cc3O2)c2ccccc2C(=O)N1N=Cc1c[c-]c(-c2ccccn2)cc1.Cc1c(C)c(-c2ccc(-c3ccccc3)cc2)[c-](C)c1C.[Cl-].[Ir+3]	A549	annexin V/PI flow cytometry	2.0×IC50, 24 h	–	late apoptotic cells	88.75 ± 0.12%
CN(C)CCN1CCN(c2ccc3nc(-c4ccc5nc(-c6ccc(C(F)(F)F)cc6)[nH]c5c4)[nH]c3c2)CC1	SNB-19	SRB	10 µM, 48 h	–	growth percent	69.6%
Cc1cc(NC(=O)c2cccc(N)c2)ccc1Nc1nccc(-c2cccnc2)n1	HEK293 AP-1 reporter	AP-1 promoter, luciferase	concentration not given, 6 h, unit not given, added: PMA	reference: PMA alone	reporter activity	0.765
[Cl-].[Cl-].[Ru+2].c1ccc(-c2ccccn2)nc1.c1ccc(-c2ccccn2)nc1.c1ccc2cc3nc4c5cccnc5c5ncccc5c4nc3cc2c1	SK-MEL-28	photocytotoxicity	light 633 nm, oxygen 1%	–	EC50	133 ± 6 µM
CC(C)Cc1ccc(C(C)C(=O)[Se]CC(=O)Nc2cccc(C(F)(F)F)c2)cc1 (stereo not drawn)	NCI60 prostate subpanel (PC-3, DU-145)	total growth inhibition, inhibitor	five-dose	–	mean TGI	3.79 µM
COc1ccc(NC(=O)c2ccc3[nH]c(-c4ccc(N(C)C)cc4)nc3c2)cn1	ZR-75-1	cell growth, CellTiter-Glo	–	–	GI50	> 30 µM
CCOc1cncc(-c2ccc(NC(=O)C3(c4ccnc(NS(=O)(=O)C5CC5)n4)CCOCC3)nc2)n1	NALM-33	cell proliferation, CellTiter-Glo	72 h, lymphoid haematological cancer	–	IC50	0.003 µM
Cc1cc(Cl)cc(-c2ccnc3cc(CN4C(=O)C5C(C4=O)C5(C)C)sc23)c1C[C@@H]1CNCCO1 (stereo partly drawn)	CHP-212 resistant subline R3	annexin V/PI flow cytometry	0.3 µM, 48 h	–	apoptotic cells	11.5% and 10.2% and 13.8%
CNS(=O)(=O)Nc1nccc(Cc2c(C)c3ccc(Oc4ncccc4F)cc3oc2=O)c1F	LS180	cell viability	7 days	–	IC50	> 1 µM
CN1CCCNC(=O)c2cccc(c2)C(=O)NCCCN(C)CCCNc2cccc3c2C(=O)c2cccc(c2C3=O)NCCC1	SAS	RNA-Seq, item: RPF2 mRNA	1 µM, 6 h	reference: untreated cells	log2 fold change	-0.598
C1=[N+]2CCCC[N+]3=Cc4ccc5[n]4[Au-]23[n]2c1ccc2-c1nc2ccccc2nc1-5.F[P-](F)(F)(F)(F)F	A498	NCI60 five-dose screen	–	–	TGI	4 -log M

A few entries again:
SMILES	cell line	assay	conditions	scale	measurement	result
CC1(C)C[C@@H](Nc2cccc(-c3sc(C(=O)O)c(OCC(=O)O)c3Cl)c2)CCN1S(=O)(=O)Cc1cccc(NC(=O)CN2CCC(c3ccc4c(c3)oc(=O)n4C3CCC(=O)NC3=O)CC2)c1 (stereo partly drawn)	B16-F10	HTRF, item: phospho-STAT1 Tyr701	1.1 µM, added: IFN-γ	reference: DMSO	fold change	5.08 and 5.21 and 5.06 and 5.18 and 5.25
